{"data": "Experimental data collected from several papers", "note": "Several values in a cell are separate wells, animals, samples, runs or records. Numbers after ± are the reported error."}
{"SMILES": "CC[C@H](C)[C@H](NC(=O)[C@H](Cc1ccc(O)cc1)NC(=O)[C@H](CCC(=O)O)NC(=O)CNC(=O)[C@H](CCC(=O)O)NC(=O)[C@H](CCCCN)NC(=O)[C@H](CCCCN)NC(=O)[C@H](CC(=O)O)NC(=O)[C@H](Cc1c[nH]cn1)NC(=O)[C@H](Cc1c[nH]cn1)NC(=O)[C@H](Cc1c[nH]cn1)NC(=O)[C@H](Cc1c[nH]cn1)NC(=O)[C@H](Cc1c[nH]cn1)NC(=O)[C@H](Cc1c[nH]cn1)NC(=O)[C@H](Cc1c[nH]cn1)NC(=O)[C@H](Cc1c[nH]cn1)NC(=O)[C@H](Cc1c[nH]cn1)NC(=O)[C@@H](N)Cc1c[nH]cn1)C(=O)N[C@@H](CCCCN)C(=O)N[C@@H](CC(C)C)C(=O)N[C@@H](CCCCN)C(=O)N[C@H](C(=O)N[C@H](C(=O)NCC(=O)N[C@@H](CCC(N)=O)C(=O)N[C@@H](CC(=O)O)C(=O)N[C@@H](CO)C(=O)N[C@@H](CO)C(=O)N[C@@H](CCC(=O)O)C(=O)N[C@H](C(=O)N[C@@H](Cc1c[nH]cn1)C(=O)N[C@@H](Cc1ccccc1)C(=O)N[C@@H](CCCCN)C(=O)N[C@H](C(=O)N[C@@H](CCCCN)C(=O)N[C@@H](CCSC)C(=O)N[C@H](C(=O)N[C@H](C(=O)N[C@@H](Cc1c[nH]cn1)C(=O)N[C@@H](CC(C)C)C(=O)N[C@@H](CCCCN)C(=O)N[C@@H](CCCCN)C(=O)N[C@@H](CC(C)C)C(=O)N[C@@H](CCCCN)C(=O)N[C@@H](CCC(=O)O)C(=O)N[C@@H](CO)C(=O)N[C@@H](Cc1ccc(O)cc1)C(=O)N[C@@H](CS)C(=O)N[C@@H](CCC(N)=O)C(=O)N[C@@H](CCCNC(=N)N)C(=O)N[C@@H](CCC(N)=O)C(=O)O)[C@@H](C)O)[C@@H](C)O)C(C)C)[C@@H](C)CC)[C@@H](C)CC)C(C)C", "test system": "Drosophila α-synuclein A53T transgenic", "setting": "60 µM, 1 day post eclosion, unit not given", "scale": "reference: untreated", "quantity": "climbing mean difference", "result": 0}
{"SMILES": "CC1=CC(=O)c2ccccc2C1=O", "test system": "pancreatic islet cells, mouse", "setting": "7 µM, 24 h", "quantity": "live cells", "result": "34.4%"}
{"SMILES": "Cc1ncsc1-c1ccc(C(C)NC(=O)C2CC(O)CN2C(=O)C(NC(=O)CCCCCCCCCCN2CCCC(Nc3ncc(Cl)c(Nc4ccccc4S(=O)(=O)C(C)C)n3)C2)C(C)(C)C)cc1 (stereo not shown)", "tested on": "22Rv1", "assay": "RNA-seq, refers to: STC2 mRNA", "setting": "concentration not given", "scale": "reference: DMSO", "quantity": "log2 fold change", "result": -1.29}
{"SMILES": "COC1OC(C)C(O)C(OC2OC(C)C(O)C(OS(=O)(=O)O)C2OS(=O)(=O)O)C1OS(=O)(=O)O (stereo not shown)", "test system": "human plasma", "setting": "128 µg/mL", "scale": "reference: control", "quantity": "thrombin time prolongation", "result": "1 fold"}
{"SMILES": "COc1c(Cl)cccc1Nc1c(-c2ccncc2C#C[C@@]2(C)CCCN2C(=O)/C=C/CN(C)C)[nH]c2c1C(=O)NCC2", "test system": "male NSG mouse, PDX", "setting": "25 mg/kg once daily, 42 days, EGFR SVD", "quantity": "tumour growth inhibition", "result": "98.2%"}
{"SMILES": "COC1CN([C@H]2CC[C@H]([C@@]3(C)Oc4c(Cl)cc(C(=O)NCc5c(SC)cc(C)[nH]c5=O)c(C)c4O3)CC2)C1", "assay": "RNA-seq, refers to: SLC6A9 mouse homolog", "test system": "mouse, HT-1376 xenograft, whole blood", "setting": "dose not given", "scale": "reference: vehicle", "quantity": "log2 fold change", "result": 1.55}
{"SMILES": "COc1cc(O)ccc1CCC(c1ccc(O)cc1)c1cc2c(c(C)c1O)OC(c1ccc(O)cc1)CC2 (mixture of isomers)", "test system": "human blood", "setting": "10 µM, together with: A23187", "quantity": "5-HETE level", "result": "1180 ± 484 pg/mL"}
{"SMILES": "COC1OC(C)C(OC2OC(C)C(O)C(OS(=O)(=O)O)C2OS(=O)(=O)O)C(OS(=O)(=O)O)C1OS(=O)(=O)O (stereo not shown)", "test system": "human plasma", "setting": "128 µg/mL", "quantity": "thrombin time", "result": "9.3 ± 0.1 s"}
{"SMILES": "C=CC(=O)Nc1cccc(Cn2ncc3cnc(Nc4cnn(CCOC)c4)nc32)c1", "tested on": "CSNK1G3 human", "assay": "binding, KINOMEscan", "setting": "100 nM", "scale": "lower = stronger binding", "quantity": "percent of control", "result": "100%"}
{"SMILES": "COc1cc2c(NC3CCN(C(C)C)CC3)cc(N3CCOCC3)nc2cc1OCCCN1CCCC1", "assay": "TMT quantitative proteomics, refers to: GMFB", "test system": "5xFAD mice, hippocampus", "setting": "dose not given", "quantity": "normalised protein abundance", "result": "0.0797 and 0.0436 and 0.0452 and 0.0221 and 0.0736 and 0.0521 and 0.034 and 0.0233"}
{"SMILES": "Nc1nc2cc(CC[C@H]3C[C@@H](n4ccc5c(N)ncnc54)[C@H](O)[C@@H]3O)ccc2cc1Br", "test system": "NCI-H1048 xenograft, mouse", "setting": "10.0 mg/kg/day, day 28", "quantity": "tumour volume", "result": "32 ± 11 mm3"}
{"SMILES": "O=C(N[C@@H](Cc1ccc(OCCCCC2CCNCC2)cc1)C(=O)O)c1nc2ccccc2o1.O=C(O)C(F)(F)F", "assay": "platelet aggregation, inhibitor, impedance aggregometry", "test system": "human, whole blood, 1:1 saline", "setting": "3000 nM, 6 min, 37 °C, together with: ADP 20 µM", "scale": "higher = more aggregation", "quantity": "aggregation impedance AUC", "result": "0 a.u."}
{"SMILES": "COC1OC(C)C(OC2OC(C)C(OS(=O)(=O)O)C(OC3OC(C)C(OC4OC(C)C(OS(=O)(=O)O)C(OC5OC(C)C(OC6OC(C)C(OS(=O)(=O)O)C(OC7OC(C)C(OC8OC(C)C(OS(=O)(=O)O)C(OS(=O)(=O)O)C8O)C(OS(=O)(=O)O)C7O)C6O)C(OS(=O)(=O)O)C5O)C4O)C(OS(=O)(=O)O)C3O)C2O)C(OS(=O)(=O)O)C1O (stereo not shown)", "test system": "human plasma", "setting": "128 µg/mL", "scale": "reference: control", "quantity": "thrombin time prolongation", "result": "1 fold"}
{"SMILES": "CN1CCC[C@]1(C)/C=C/S(=O)(=O)NC(=O)Nc1c2c(cc3c1CCC3)CCC2", "test system": "human, whole blood ex vivo", "setting": "12.5 mg twice daily, day 14, 12 h, multiple ascending dose, together with: LPS and ATP", "quantity": "IL-1β inhibition", "result": "95.7%"}
{"SMILES": "Cc1ccc(N(O)/N=N/c2ccc(S(=O)(=O)Nc3nccs3)cc2)cc1", "assay": "DPPH scavenging, absorbance", "setting": "300 µg/mL", "quantity": "inhibition", "result": "33.2%"}
{"SMILES": "COC1OC(C)C(OS(=O)(=O)O)C(OC2OC(C)C(OS(=O)(=O)O)C(OC3OC(C)C(OS(=O)(=O)O)C(OC4OC(C)C(OS(=O)(=O)O)C(OC5OC(C)C(OS(=O)(=O)O)C(OC6OC(C)C(OS(=O)(=O)O)C(OC7OC(C)C(OS(=O)(=O)O)C(OC8OC(C)C(OS(=O)(=O)O)C(OC9OC(C)C(OS(=O)(=O)O)C(OC%10OC(C)C(OS(=O)(=O)O)C(OC%11OC(C)C(OS(=O)(=O)O)C(OS(=O)(=O)O)C%11O)C%10O)C9O)C8O)C7O)C6O)C5O)C4O)C3O)C2O)C1O (stereo not shown)", "test system": "human plasma", "setting": "128 µg/mL", "scale": "reference: control", "quantity": "thrombin time prolongation", "result": "1 fold"}
{"SMILES": "NC[C@@H](C(=O)Nc1ccc(-c2cn[nH]c2)cc1)c1ccccc1", "assay": "tonometry", "test system": "NZW rabbit, magnetic bead-induced ocular hypertension", "setting": "ocular, 0.1%, 6 h", "quantity": "IOP", "result": "29.8 mmHg"}
{"SMILES": "COC1OC(C)C(OC2OC(C)C(OS(=O)(=O)O)C(OC3OC(C)C(OS(=O)(=O)O)C(OS(=O)(=O)O)C3OS(=O)(=O)O)C2OS(=O)(=O)O)C(OS(=O)(=O)O)C1OS(=O)(=O)O (stereo not shown)", "test system": "human plasma", "setting": "128 µg/mL", "quantity": "thrombin time", "result": "10.2 ± 0.2 s"}
{"SMILES": "C=C(NC(=O)c1csc(-c2nc3c(cc2O)-c2nc(cs2)C(=O)NC(C(C)O)C(=O)NC(=C(C)OC)c2nc(cs2)C(=O)NC2c4nc(cs4)C(=O)NC(COC(=O)c4c5c6c(cccc6n4O)COC(=O)C(OC4CC(C)(O)C(N(C)C)C(C)O4)C2OC5)c2nc-3cs2)n1)C(N)=O (stereo not shown)", "test system": "cynomolgus monkey, plasma", "setting": "intravenous, 1 mg/kg, single dose, infusion", "quantity": "AUC(0-inf)", "result": "8280 ng·h/mL"}
{"note": "A few entries again:"}
{"SMILES": "CC[C@H](C)[C@H](NC(=O)[C@H](Cc1ccc(O)cc1)NC(=O)[C@H](CCC(=O)O)NC(=O)CNC(=O)[C@H](CCC(=O)O)NC(=O)[C@H](CCCCN)NC(=O)[C@H](CCCCN)NC(=O)[C@H](CC(=O)O)NC(=O)[C@H](Cc1c[nH]cn1)NC(=O)[C@H](Cc1c[nH]cn1)NC(=O)[C@H](Cc1c[nH]cn1)NC(=O)[C@H](Cc1c[nH]cn1)NC(=O)[C@H](Cc1c[nH]cn1)NC(=O)[C@H](Cc1c[nH]cn1)NC(=O)[C@H](Cc1c[nH]cn1)NC(=O)[C@H](Cc1c[nH]cn1)NC(=O)[C@H](Cc1c[nH]cn1)NC(=O)[C@@H](N)Cc1c[nH]cn1)C(=O)N[C@@H](CCCCN)C(=O)N[C@@H](CC(C)C)C(=O)N[C@@H](CCCCN)C(=O)N[C@H](C(=O)N[C@H](C(=O)NCC(=O)N[C@@H](CCC(N)=O)C(=O)N[C@@H](CC(=O)O)C(=O)N[C@@H](CO)C(=O)N[C@@H](CO)C(=O)N[C@@H](CCC(=O)O)C(=O)N[C@H](C(=O)N[C@@H](Cc1c[nH]cn1)C(=O)N[C@@H](Cc1ccccc1)C(=O)N[C@@H](CCCCN)C(=O)N[C@H](C(=O)N[C@@H](CCCCN)C(=O)N[C@@H](CCSC)C(=O)N[C@H](C(=O)N[C@H](C(=O)N[C@@H](Cc1c[nH]cn1)C(=O)N[C@@H](CC(C)C)C(=O)N[C@@H](CCCCN)C(=O)N[C@@H](CCCCN)C(=O)N[C@@H](CC(C)C)C(=O)N[C@@H](CCCCN)C(=O)N[C@@H](CCC(=O)O)C(=O)N[C@@H](CO)C(=O)N[C@@H](Cc1ccc(O)cc1)C(=O)N[C@@H](CS)C(=O)N[C@@H](CCC(N)=O)C(=O)N[C@@H](CCCNC(=N)N)C(=O)N[C@@H](CCC(N)=O)C(=O)O)[C@@H](C)O)[C@@H](C)O)C(C)C)[C@@H](C)CC)[C@@H](C)CC)C(C)C", "test system": "Drosophila α-synuclein A53T transgenic", "setting": "60 µM, 1 day post eclosion, unit not given", "scale": "reference: untreated", "quantity": "climbing mean difference", "result": 0}
{"SMILES": "COC1OC(C)C(OC2OC(C)C(O)C(OS(=O)(=O)O)C2OS(=O)(=O)O)C(OS(=O)(=O)O)C1OS(=O)(=O)O (stereo not shown)", "test system": "human plasma", "setting": "128 µg/mL", "quantity": "thrombin time", "result": "9.3 ± 0.1 s"}
{"SMILES": "COC1OC(C)C(OC2OC(C)C(OS(=O)(=O)O)C(OC3OC(C)C(OS(=O)(=O)O)C(OS(=O)(=O)O)C3OS(=O)(=O)O)C2OS(=O)(=O)O)C(OS(=O)(=O)O)C1OS(=O)(=O)O (stereo not shown)", "test system": "human plasma", "setting": "128 µg/mL", "quantity": "thrombin time", "result": "10.2 ± 0.2 s"}
